Results gathered from unrelated publications.
A part holds a random share of what one study measured. Positions count from the first letter of the parent shown.

Sample 1 — method: RNA Bind-n-Seq; form: RNA; sample: in vitro; concentration: not given; setting: RNA with constant flanks, ends assumed; baseline: input RNA pool; direction: higher = stronger binding
Target: RING finger protein unkempt homolog, zinc fingers 1-6, GST-SBP tag (UNK, Homo sapiens, UniProt Q9C0B0, residues 30-357)
Constant ends, left off below: GGGAGUUCUACAGUCCGACGAUC … CAACAGAGGAUUGAGCAUCA
Construct (chain): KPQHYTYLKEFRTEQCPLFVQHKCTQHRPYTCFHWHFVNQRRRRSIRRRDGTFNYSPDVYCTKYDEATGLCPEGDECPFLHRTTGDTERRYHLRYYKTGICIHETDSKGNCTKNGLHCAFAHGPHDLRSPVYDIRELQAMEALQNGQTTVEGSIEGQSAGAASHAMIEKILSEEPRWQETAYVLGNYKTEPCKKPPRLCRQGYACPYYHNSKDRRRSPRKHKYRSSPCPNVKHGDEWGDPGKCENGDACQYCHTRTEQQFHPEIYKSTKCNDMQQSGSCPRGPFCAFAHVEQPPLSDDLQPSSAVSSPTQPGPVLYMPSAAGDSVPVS
Sequence	bound/input enrichment
GAAGAAAAUGGCGAGGACAGAGAUACAGCAAGUGAAAAAGAAUUAAAUGGAGAUUCUGAUUCCGAUCCUGAAAAUGAAAGUGAAGAAGAAUGAAGACAGCAAAGCAAGCCGGUCAAACUA	0.433 ratio
CGCGCAGGGAUGGAGGCCUGUCUUGUUCCCGCCAAUUCUCGUGUCAGUCCUGUCCGGGUCCCGUUCUUUACUUCAUGGAGCCAUUUGAUCCUGCGGAGCUGCCGGAGCUACUCAAGCUUU	0.0365 ratio
ACAUUUGAUGAGCUUCGAGAAACCAAAACCUCUGAGUACUUUAGUCUGUCCCACCAGCAGUCCGACUACAGAAUAUUGCUGAUGGAUGAAGAUCAAGACCGGAUAUAUGUGGGGAGCAAA	0.255 ratio
GUGAACCCAGUGGAAUUCUUCCGCCCUGAUAUUUCUCUGUUGGACAGAGACAAUGUUGGAUCCGUUUUACUCUUACAGCCCAAAAUUCCAUAUGCUGCCUGCCCUGCAAUCUGCGUAGCA	0.322 ratio
AACACAUGGCAGUUCAACUUCAAGUUCAACCUGACAGAGGAUAUGUACUCCCAGGAUUCCACCGAUCUGCUUGCAAACUCAGGGCUGCAGUUCCAGAAACACGAGGAGGAAGGGAUCGAU	0.112 ratio
AGACCUUUGGGUACAACCAAAGCUGCAGGAUACAAAGUCAGCCCAGGGAGACCUCCAGGCCGCAUUAAAGCUCUGUCCCGCCUUGCAGAUCUUGGCUAUGGCUGUGGCACUGCUGCCUUU	0.124 ratio
GCAGAGAUUCAUCACAGUUGGACUUCAGGGGUAGGGACAUACAUUCUGGGGAUUUUCGGGACCGAGAAGGACCACCUAUGGACUAUAGGGGUGGAGAUGGUACUUCUAUGGAUUAUAGAG	0.722 ratio
AAGGAGGCAGAGGGUCAGAGCUUGGUGGUUUAUCUUUUCCUUGUUUCUCCUUGUUUCUGUUUCCGAAAUGAAGUGUGGGGGUUUAAAUGGCACUUAAACUGCACCCUGGAGCCGGCAGAA	0.32 ratio
CGAAAUUGGGAUGACAUGAAACACCUGUGGGACUACACAUUUGGACCAGAGAAACUUAAUACCGAUACCAGAAAUUGUAAAAUCUUACUCACAGAACCUCCUAUGAACCCAACCAAAAAC	0.195 ratio
GCAAGUAACAAUCGCUUAUUCCAGCUCGUAAUGAAGGGCCUACUUUAUGAAUGCUGCGCCGAAUUUUGUCAGAGUAAAGCAACUGGUGAAGAAAUUACAGAAAGUGAAGUCCUUCUUGGC	0.167 ratio
AAGUUUGGAUUUGAAAUUAGUUUUCCUGAAUUUUGUUUAAAAGGAGUUACGCCUACGAAUGUCCGUGCGUAUAAUUUAAAUACCUGCUUCCUUGCCAAGAAGAUAGCAUCUUCUAAGGUU	0.52 ratio

Sample 2 — method: RNAcompete; form: RNA; sample: in vitro; concentration: 20 nM; setting: 7-mer, probes averaged, single round; baseline: mean of 7-mers; direction: higher = stronger binding
Target: PABPC1L2, full length, GST fusion (mouse, UniProt A0ABA7IW68)
Target sequence (chain): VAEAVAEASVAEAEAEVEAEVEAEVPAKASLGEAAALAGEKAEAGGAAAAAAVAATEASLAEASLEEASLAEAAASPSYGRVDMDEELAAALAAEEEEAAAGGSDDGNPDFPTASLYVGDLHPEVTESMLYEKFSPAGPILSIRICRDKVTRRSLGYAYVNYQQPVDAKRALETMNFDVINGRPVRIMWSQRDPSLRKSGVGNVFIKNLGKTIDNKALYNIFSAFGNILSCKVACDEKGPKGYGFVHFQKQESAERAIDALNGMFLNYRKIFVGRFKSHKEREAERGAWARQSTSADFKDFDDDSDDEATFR
Sequence	7-mer Z-score
UUAAUGG	-0.17
CCUCUGC	-0.394
AACCACA	0.0533
GCACUUA	-0.0373
GAGUCCC	-0.382
UUGAGUU	-0.378
GUGGCAC	0.0895
GUACCAG	-0.248
UCGAGUU	-0.315
CUCAGCA	-0.0899
UCAAAUA	0.162
ACGGGAG	0.0877
CUCUUUA	-0.0228
CGUUCUG	-0.331
CCCCUGU	-0.416
GGGUAUC	0.0207
CCGGGAU	-0.0808
AUAGCGC	-0.0536
CAGCCAG	-0.19
GCGCCUU	-0.345
AUCUAGU	-0.211
UAAUCAU	-0.117
CGCCGCC	-0.42
UGUAAGG	0.166
AUAACAU	0.0152

Sample 3 — method: universal PBM; form: double-stranded DNA, one strand shown; sample: in vitro; concentration: 600 nM; direction: higher = stronger binding
Target: Sal-like protein 4, full length isoform A (SALL4, Homo sapiens, UniProt Q9UJQ4, residues 1-1053)
Sequence of UniProt Q9UJQ4 (whole entry, looked up): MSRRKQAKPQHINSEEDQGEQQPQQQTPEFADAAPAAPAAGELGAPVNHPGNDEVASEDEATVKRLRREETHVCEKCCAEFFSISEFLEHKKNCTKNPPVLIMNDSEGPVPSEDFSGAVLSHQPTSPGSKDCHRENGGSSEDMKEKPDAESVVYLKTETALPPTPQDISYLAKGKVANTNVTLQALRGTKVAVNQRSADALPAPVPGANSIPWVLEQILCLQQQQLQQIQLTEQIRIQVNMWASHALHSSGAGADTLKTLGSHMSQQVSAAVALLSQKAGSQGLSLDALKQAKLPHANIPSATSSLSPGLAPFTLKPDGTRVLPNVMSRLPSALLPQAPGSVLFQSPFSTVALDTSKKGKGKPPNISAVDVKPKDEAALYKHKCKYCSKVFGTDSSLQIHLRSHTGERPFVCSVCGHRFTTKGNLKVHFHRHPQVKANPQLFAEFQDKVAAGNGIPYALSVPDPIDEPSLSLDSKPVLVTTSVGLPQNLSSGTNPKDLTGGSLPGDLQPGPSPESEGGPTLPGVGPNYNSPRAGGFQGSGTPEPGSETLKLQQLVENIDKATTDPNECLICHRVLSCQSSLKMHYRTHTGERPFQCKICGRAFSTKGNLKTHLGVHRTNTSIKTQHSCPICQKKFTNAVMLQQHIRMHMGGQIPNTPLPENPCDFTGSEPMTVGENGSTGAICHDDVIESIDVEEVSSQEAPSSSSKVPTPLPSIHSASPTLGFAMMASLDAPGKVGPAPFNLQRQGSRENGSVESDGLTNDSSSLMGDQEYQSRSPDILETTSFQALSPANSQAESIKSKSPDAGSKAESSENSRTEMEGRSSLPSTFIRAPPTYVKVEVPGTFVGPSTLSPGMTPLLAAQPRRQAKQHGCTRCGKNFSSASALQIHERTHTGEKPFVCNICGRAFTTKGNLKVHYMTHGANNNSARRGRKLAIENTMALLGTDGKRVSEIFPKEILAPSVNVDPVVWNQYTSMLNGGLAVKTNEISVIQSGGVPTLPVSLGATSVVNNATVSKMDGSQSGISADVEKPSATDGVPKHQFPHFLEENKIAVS
Setting: 8-mer, flanks averaged, mean of replicates
Sequence	E-score
CCACTATC	-0.0613
CGGAGGAC	-0.197
AGTTTATG	0.299
TGGAACAA	0.173
TGGCTAAA	0.171
GATAGTTA	0.195
CTTAGGAA	0.135
GATAAAAC	0.238
CCTACCCA	-0.0363
ATATAGGC	0.278
AAAGCTCC	-0.213
CAAGCTGA	-0.0735
CTATGCGA	-0.148
GCAACGCA	-0.204
CACAGCTC	-0.194
CCACTACA	-0.0854
ACTCGCCC	-0.34
CTTCAGCC	-0.175
AGAGGCAG	-0.246
CAAACCAG	-0.0924
GCGCTCAC	-0.204
AAAAAATG	0.382
GACTTTCA	0.0161
CACGGTGA	-0.0931
CCCGGGAG	-0.416

Sample 4 — method: DHFR PCA, deep sequencing; sample: yeast; together with: (+)-ABA 200 µM; baseline: wild-type fitted maximum; direction: higher = stronger binding
Target: ABI1, truncated, D143A, DHFR fusion (Arabidopsis thaliana)
Setting: methotrexate growth selection, single substitutions
Starting sequence: PYL1, truncated, DHFR fusion (Arabidopsis thaliana); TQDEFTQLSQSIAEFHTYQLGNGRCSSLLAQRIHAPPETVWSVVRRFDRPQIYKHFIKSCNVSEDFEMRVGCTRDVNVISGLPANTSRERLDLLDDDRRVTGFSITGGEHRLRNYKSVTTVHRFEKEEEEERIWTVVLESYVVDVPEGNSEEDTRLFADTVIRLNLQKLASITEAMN; partner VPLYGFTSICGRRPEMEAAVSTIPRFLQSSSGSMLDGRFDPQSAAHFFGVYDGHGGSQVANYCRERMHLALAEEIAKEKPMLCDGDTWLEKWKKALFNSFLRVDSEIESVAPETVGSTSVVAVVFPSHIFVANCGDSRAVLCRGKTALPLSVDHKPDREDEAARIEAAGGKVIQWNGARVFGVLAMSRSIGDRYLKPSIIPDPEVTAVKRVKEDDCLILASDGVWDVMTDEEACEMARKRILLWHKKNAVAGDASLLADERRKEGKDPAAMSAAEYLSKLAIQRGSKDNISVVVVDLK
Variant	relative binding score
L20R	98.1%
K126W	98.8%
R49L	84.9%
E139V	95.8%
K54Y	10%
P36W	70.1%
E127S	107%
V62L	99.3%
G108K	33.9%
G102L	2.03%
I133N	102%
T17I	77.5%
Q10L	92.1%
E129M	96.9%
V121E	3.56%
I33T	39.9%
V40R	-23%
H34I	88.6%
Q19V	99.2%
N22D	100%
D48I	-2.43%
E127Q	106%
S104E	51.8%
W41Q	14.9%
L94W	94.9%

Sample 5 — method: protein binding microarray; form: double-stranded DNA, one strand shown; sample: in vitro; concentration: not given; baseline: not given; direction: higher = stronger binding
Target: Histone acetyltransferase KAT6A, winged helix 1, GST fusion (KAT6A, Homo sapiens, UniProt Q92794, residues 1-85)
Setting: 8-mer, flanks averaged, mean of 2 arrays, mostly near background
Target sequence (chain): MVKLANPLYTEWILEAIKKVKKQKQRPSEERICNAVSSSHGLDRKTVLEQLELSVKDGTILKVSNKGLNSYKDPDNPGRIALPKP
Sequence	E-score
AACGCACG	0.214
ATGCCATG	-0.0327
ACACTACC	0.0229
AAGCGTCA	-0.00911
GACGTGGA	-0.159
GAGGTACC	-0.00564
AAGCCTAT	-0.0642
AAACTGGT	-0.083
AGAGACTG	-0.103
AGCGCTCG	0.348
CCGCGAAG	0.315
AGGTTTCA	-0.148
AGTAGTGG	-0.111
CAAACGCA	0.0359
ATTATGTG	-0.0877
CTATCTTC	-0.236
CTCTACTC	-0.0795
CGAAAATA	0.00996
GTACGTCA	0.0128
CGGACTAG	0.153
AGATCGCT	0.117
